Experimental data collected from several papers.
A part holds a random share of what one study measured.

Study 1
Target: RING finger protein unkempt homolog, zinc fingers 1-6, GST-SBP tag (UNK, Homo sapiens, UniProt Q9C0B0, residues 30-357)
Method: RNA Bind-n-Seq
Form: RNA
Medium: in vitro
Concentration: not given
Setting: RNA with constant flanks, human and mouse sites, ends assumed
Relative to: input RNA pool
Reading: higher = stronger binding
Measurement: bound/input enrichment
All sequences stand within: GGGAGUUCUACAGUCCGACGAUC … CAACAGAGGAUUGAGCAUCA
Residues (chain): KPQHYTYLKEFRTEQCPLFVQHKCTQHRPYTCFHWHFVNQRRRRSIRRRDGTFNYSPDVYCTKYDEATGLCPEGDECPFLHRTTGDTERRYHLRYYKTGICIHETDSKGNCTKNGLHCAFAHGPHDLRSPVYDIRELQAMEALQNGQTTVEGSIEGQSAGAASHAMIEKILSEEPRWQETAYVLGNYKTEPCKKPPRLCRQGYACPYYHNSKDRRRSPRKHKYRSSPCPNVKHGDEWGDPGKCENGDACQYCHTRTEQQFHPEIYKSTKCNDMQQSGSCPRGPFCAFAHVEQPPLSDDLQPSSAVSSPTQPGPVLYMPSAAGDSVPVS
UAGAUACAUAUAUAUUUGCUUGAAGAAUCACCAAGCAAAUUGGUGAGAGGGUCUUUUCCAAUAGAAUUUACACCUCCAUUUGUUGUGUUGUCUUGCACUUCCCAAUGUUGAUGUCUCUAU: 1.06 ratio
CCAGGGCUCAAAGUGGGCCCUGUCCCAGUGCUGGUGAUGAGUCUUCUGUUCAUCGCUGCUGUAUUUAUGCUGCACAUUUGGGGCAAGUACACGCGAUCAUAGAUUGGGCUACAUCCAUCU: 0.141 ratio
AGCUCUGGCCCGCAUCUCGCUGUGCCCUGAAGGGGGAUGAAGGGCGAUGCCUCGCCCGAGGCUUUGGGCUGCUGCACUGCAUGCUGGGACUGCUCCUACUCUCUGUCCCACCCCUCACCC: 0.118 ratio
CGCAAUACUAUUGCUUCCAUUGCUGCUGGUGUACUAUUUUUUACAGGCUGGUGGAUUAUCAUAGAUGCAGCUGUUAUUUAUCCCACCAUGAAAGAUUUCAACCACUCAUACCAUGCCUGU: 0.341 ratio
AUUCUGCUGGGCAAUGGCACCCUGCCCGCCACCAUCCUCACCAGUCUCUUCACCGACAGCUUAGUCAAAGAAGGCAUUGCGGCCUCAUUUGCUGUCAAGCUUUUCAAAGCAUGGAUGGCA: 0.123 ratio
AUAUGCCUAUGGCUACUGGACACAUACCCAUAUAAUCCCCCUAUCUGUUUUGUUAAGCCUACUAGUUCAAUGACUAUUAAAACAGGAAAGCAUGUUGAUGCAAAUGGGAAGAUAUAUCUU: 0.1 ratio
AAGACCAUCACCCUGGAGGUGGAGCCCAGUGACACCAUCGAGAACGUGAAGGCCAAGAUCCAGGAUAAAGAGGGCAUCCCCCCUGACCAGCAGAGGCUGAUCUUUGCCGGCAAGCAGCUG: 0.0848 ratio
GCGGGUGUAAGGGGAUAUCUUGAUAAACUGGAGCCCAGCAAGAUUACAAAGUUUGAGAAUGCUUUCUUGUCUCAUGUCGUCAGCCAGCACCAAGCCUUGUUGGGCACUAUCAGGGCUGAU: 0.122 ratio
CGAUCAGGGGAUAGUGAAGUAUACCAAAUGGGUGACGUUAGUCAGAAGACGACGUGGCACAGAAUAUCAGUGUUUCGACCAGGCCUCAGAGAUGUGGCAUAUCAGUAUGUGAAAAAGGGG: 0.193 ratio
UCCGGAGUCUUCAAUGUAUCAGAGCUUGUGAGAGUAUCCAGAACACCCAUAACCCAGGGAACUGGAGUCAACUUCCCAAUCGGAGAAAUUCCCAGCCAACCAUACUAUCAUGACAUGAAC: 0.304 ratio
UUUGGAGGUAUUUGAUAACUGAGUAGGUGAGGAGAUUAAAAGGGAGCCAUAUAGCACUGUCACCCCUUAUUUGAGGAACUGAUGUUUGAAAGGCUGUUCUUUUCUCUCUUAAUGUCAUUU: 0.323 ratio

Study 2
Target: Histone acetyltransferase KAT6A, winged helix 1, GST fusion (KAT6A, Homo sapiens, UniProt Q92794, residues 1-85)
Method: protein binding microarray
Form: double-stranded DNA, one strand shown
Medium: in vitro
Concentration: not given
Setting: 8-mer, flanks averaged, mean of 2 arrays, mostly near background
Relative to: not given
Reading: higher = stronger binding
Measurement: E-score
Target sequence (chain): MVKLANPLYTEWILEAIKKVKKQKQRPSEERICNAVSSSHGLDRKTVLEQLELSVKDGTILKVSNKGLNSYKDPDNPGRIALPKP
CGGGATGA: 0.166
ATCTTTCC: -0.0401
CGGCATTA: 0.369
CGCTGAAC: 0.162
AAGGCGAC: -0.0151
AGCACTTA: -0.165
AGACTACT: -0.138
CTTACCAA: -0.0186
CGTAGGTC: 0.0273
CACGAGGG: -0.166
GACTAGTC: -0.237
GCATCGCA: 0.106
CTCCCAAA: -0.231
GCGACGCC: 0.376
AACCGCCA: 0.112
GGTACGCA: 0.107
CTCTGCCA: -0.193

Study 3
Organism: Saccharomyces cerevisiae
Effect on: cell growth
Method: competitive growth deep sequencing
Form: peptide
Setting: peptide tiling library
Together with: cyclin F-Cln2 fusion
Reading: direction not given
Measurement: enrichment score
VEEEFFALRKRTPSAG: 0.509
VRDLSYRLVFLACCVA: 0.95
DSDSDSEGGAAGGEAD: 2.7
FREFEVEKQTAEETGL: 0.101
ELGMEHCEKFEISETS: 0.549
RNRGPKLNAMLRLGVL: -0.258
IPMIAKNLMCELDE: 1.11
IFNKPECGRVQRAIFQ: 0.256
TLPYDLACTGGDFVLF: 0.862
DSGFCLDSPGPLDSKE: 0.77
NRLLKLFTRCLTPLVP: 0.631
HRRRLLFACSPPPASQ: 2.57
EAAPPTQEAQGETEPT: 0.669
RRRIKLPESDSSED: 2.28
TQERKQIHCLSEDELS: 0.488
VKTKKRLNFDDK: 2.06
SGYLTDENEVGFRG: 0.0798
RRRRLLFWDKETQI: 0.973
NARRSLNFGGSTGT: 3.42
NLEPNAEFDKRTEFIT: 0.681
IPDRSTKPVVFSPT: 0.988
NCKKRRALDFLSRLPL: -0.0336
ALTMEALEDPSPELME: 0.72
AIRKMREDRWAVIAKM: -0.82
LFVPQRKLEVSTEDVH: 0.398

Study 4
Target: RNA binding protein fox-1 homolog 2, RRM domain, GST-SBP tag (RBFOX2, Homo sapiens, UniProt O43251-10, residues 100-194)
Method: RNA Bind-n-Seq
Form: RNA
Medium: in vitro
Concentration: 365 nM
Setting: natural RNA segment, single round, ends assumed
Relative to: no-protein control
Reading: higher = stronger binding
Measurement: RBNS enrichment (R)
All sequences stand within: GGGAGUUCUACAGUCCGACGAUC … UGGAAUUCUCGGGUGCCAA
Residues (chain): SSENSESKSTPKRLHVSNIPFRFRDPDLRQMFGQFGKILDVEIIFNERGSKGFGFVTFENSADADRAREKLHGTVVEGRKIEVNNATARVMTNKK
CCAGAUUACUUCCUCCACCCCUCCCUAUCUCACCUGCCCAGCCCUGUGCUGGGGCCCUGCAAUUGGAAUGUUGGCCAGAUUUCUGCAAUAAACACUUGUGGUUUGCGGCC: 0.723
GGGUUCUGGCUGCCCCAACCUGCUGAAGGGCAGAGGUGGAGGGUGGGGGGCGCUGAGUAGGGACUCAGGGCCAUGCCUGCCCCCCUCAUCUCAUUCAAACCCCACCCUAG: 0.372
GGCGUUCACAGCCCCCAUACAUGGAUCUUGUUUAAAGUGUAUUAUUUAAAAGGUCAGGGUGUUAUUUUCUUCUAUAAUAAAACAGCUCACUUGUGUUGUGCUCCAGAGUG: 0.596
GGGCCUCCUAGAAACUUUAUUGCAGAGAUGACUGGAGGCCAUUGGUGUUUCCAGGAGAGCUAGCAUGUUUCUACAAGUGUAGGACUGGAUUGUGGAUCUGCUAUCUAACA: 1.28
GGUGGAGGUUGCAGUGAGCUGAGAUCGUGCCGUUACUCUCCAACCUGGACAACAAGAGCGAAACUCCGUCUUAGAAGUGGACCAGGACAGGACCAGAUUUUGGAGUCAUG: 0.454
ACACAGCAUACUGUUCAUUAAUAGUAUUUUAAAAAAAUUGUUUUUCAAAUGUCACCAAUAAAAGUUUUGGCAGGAAGCUUGUUGCGGCAUUGAUCUAACCUUUUUCCCCC: 0.948
UGUCACCGAGGCACCUGUCUCAGCUAGGACUCAGUUUCUCUUUCUGAGGUCGGCGUUAUUUCCUCUCUCCCCCCACGUCAUCCUCCUCCGACACUGACGUCCACCGUGCA: 1.42
CACGUGUGUGUGUGUGUGUGUAAAGGCUAUGCAGCCAAAAUACCAUCUGGCCAGACGGGCCCACCCAUGACUGUCUCGUCUCGUUCUUUUCAACCAGGAGGAAUAUGCUG: 0.27
AAGAGGGAUGGAAGAAAAGAACAAAGAGAAACUGUUCCUCCCACCCCCUUCCCUGAUGCCAGGGGCACCAGACUGAUUCUGAGGCACAAAUAAAAGAGGCUUCAUACCGG: 0.376
UUAUUUUACCAGCUAUUUAUUGAGUGUCUUUUAUGUAGGCUAAAUGAACAUAGGUCUCUGGCCUCACGGAGCUCCCAGUCCUAAUCACAUUCAAGGUCACCAGGUACAGU: 0.663
ACAUGAAAACCAGCAGAAAGGCCCUGAGCUGCUGCAUAGCCCCAUCUGAUUUCUGCAGUUCCCGCCAGCCUCCAACACGGGGACUCUGCCGUAACUGGAAUCUUCAUAGG: 0.322
CACUACAUCUCAAGUGUUACAGACUCCCCUCCCGCUCUUUCUUGGGGAAGAGGGGGUGGGUAAGCGCCCUCCUUCCUGUUUUUAUCUAAUAAAAUGCUAACCUGCCCAGG: 0.521

Study 5
Target: POU, POU domain (Salpingoeca helianthica)
Method: Spec-seq
Form: double-stranded DNA, one strand shown
Medium: in vitro
Concentration: not given
Setting: whole probe, mean of replicates
Relative to: not given
Reading: lower = stronger binding
Measurement: relative binding energy
All sequences stand within: GAGTCGTCTCGTCAGCAC … CCGTAGAGCACTCAGGTC
Residues (chain): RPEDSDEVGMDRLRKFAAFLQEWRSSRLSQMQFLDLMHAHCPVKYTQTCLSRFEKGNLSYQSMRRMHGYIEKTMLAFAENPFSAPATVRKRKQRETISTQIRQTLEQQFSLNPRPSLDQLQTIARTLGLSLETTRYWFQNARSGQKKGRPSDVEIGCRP
ATGCCGGT: 1.46 ln ratio
CTTTTAAT: -0.0602 ln ratio
ATCTCTAT: 1.17 ln ratio
ATACACAT: 1.16 ln ratio
ATAGGTAT: 1.32 ln ratio
ATTGTCAT: 1.12 ln ratio
ATGCGCCT: 0.919 ln ratio
ATCCCGAT: 1.32 ln ratio
TTGTTAAT: -0.86 ln ratio
ATTAGTAT: 0.397 ln ratio
TCGATAAT: 0.244 ln ratio
ATCACCAT: 1.04 ln ratio
ATCTAAAT: 0.991 ln ratio
ATGCTTCG: 0.998 ln ratio
CCGATAAT: 0.378 ln ratio
ATCTATAT: 1.01 ln ratio
TAATTAAT: -2.13 ln ratio
ATGCAGTG: 0.999 ln ratio
AGGCTAAT: 0.59 ln ratio
GAGCTAAT: 0.577 ln ratio

Study 6
Target: Sal-like protein 4, full length isoform A (SALL4, Homo sapiens, UniProt Q9UJQ4, residues 1-1053)
Chain of UniProt Q9UJQ4 (whole entry, looked up): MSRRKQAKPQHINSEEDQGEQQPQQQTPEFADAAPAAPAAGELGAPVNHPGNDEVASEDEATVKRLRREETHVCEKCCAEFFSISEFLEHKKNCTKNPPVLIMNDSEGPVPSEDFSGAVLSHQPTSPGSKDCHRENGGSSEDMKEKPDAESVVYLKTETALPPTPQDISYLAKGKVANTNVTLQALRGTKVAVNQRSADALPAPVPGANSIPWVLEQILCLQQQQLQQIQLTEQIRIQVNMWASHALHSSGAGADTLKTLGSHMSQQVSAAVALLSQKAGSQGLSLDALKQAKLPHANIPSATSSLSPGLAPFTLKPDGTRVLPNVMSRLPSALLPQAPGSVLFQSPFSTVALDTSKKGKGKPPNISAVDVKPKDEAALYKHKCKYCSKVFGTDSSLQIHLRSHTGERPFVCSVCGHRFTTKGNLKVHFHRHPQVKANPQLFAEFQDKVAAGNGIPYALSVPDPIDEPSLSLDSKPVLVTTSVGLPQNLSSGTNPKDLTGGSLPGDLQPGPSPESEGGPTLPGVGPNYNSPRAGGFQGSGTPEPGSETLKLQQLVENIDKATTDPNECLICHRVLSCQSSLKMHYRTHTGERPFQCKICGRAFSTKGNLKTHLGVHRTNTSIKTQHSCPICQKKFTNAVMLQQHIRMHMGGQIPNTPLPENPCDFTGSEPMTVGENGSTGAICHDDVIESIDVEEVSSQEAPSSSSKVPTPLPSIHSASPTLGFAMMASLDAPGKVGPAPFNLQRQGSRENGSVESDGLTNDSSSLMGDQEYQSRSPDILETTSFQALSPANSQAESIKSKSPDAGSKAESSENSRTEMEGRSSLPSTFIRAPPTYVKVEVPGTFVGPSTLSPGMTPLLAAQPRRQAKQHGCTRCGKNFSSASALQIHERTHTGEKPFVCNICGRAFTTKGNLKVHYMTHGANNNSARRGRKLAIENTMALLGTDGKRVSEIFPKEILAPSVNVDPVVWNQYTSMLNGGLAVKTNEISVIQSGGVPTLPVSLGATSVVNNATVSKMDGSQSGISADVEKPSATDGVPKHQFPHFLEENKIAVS
Method: universal PBM
Form: double-stranded DNA, one strand shown
Medium: in vitro
Concentration: 600 nM
Setting: 8-mer, flanks averaged, mean of replicates
Reading: higher = stronger binding
Measurement: E-score
GTCCTGAA: -0.0538
ACGTTGGA: -0.12
GAAACTAC: 0.107
GGGCTGCA: -0.0836
GAGGGAAC: -0.269
ATTTTGCA: 0.291
AGGCCGGA: -0.274
ACGAATCC: -0.0455
CGTCCCAC: -0.164
CACCCAGC: -0.382
ATCTGATC: 0.102
AGCATCTC: 0.0619
ATCAATGA: 0.257
ACCCGACC: -0.237
ATGAAGGG: -0.0822
ACGACGAA: 0.0303
GTGTCGCA: -0.179
CGAGGCCA: -0.286
AGTGATTG: 0.0738
CAACAACA: 0.22

A few entries again (study 5):
ATGCGCCT: 0.919 ln ratio
ATCCCGAT: 1.32 ln ratio
TTGTTAAT: -0.86 ln ratio
ATTAGTAT: 0.397 ln ratio
TCGATAAT: 0.244 ln ratio
ATCACCAT: 1.04 ln ratio
ATCTAAAT: 0.991 ln ratio
ATGCTTCG: 0.998 ln ratio
CCGATAAT: 0.378 ln ratio
ATCTATAT: 1.01 ln ratio
TAATTAAT: -2.13 ln ratio
ATGCAGTG: 0.999 ln ratio
AGGCTAAT: 0.59 ln ratio
GAGCTAAT: 0.577 ln ratio
